Results pooled from the literature.
Lines come from different studies, so protocols differ.
Target: Dipeptidyl peptidase 4 (DPP4, Homo sapiens, UniProt P27487)
UniProt P27487, sequence (whole entry, looked up): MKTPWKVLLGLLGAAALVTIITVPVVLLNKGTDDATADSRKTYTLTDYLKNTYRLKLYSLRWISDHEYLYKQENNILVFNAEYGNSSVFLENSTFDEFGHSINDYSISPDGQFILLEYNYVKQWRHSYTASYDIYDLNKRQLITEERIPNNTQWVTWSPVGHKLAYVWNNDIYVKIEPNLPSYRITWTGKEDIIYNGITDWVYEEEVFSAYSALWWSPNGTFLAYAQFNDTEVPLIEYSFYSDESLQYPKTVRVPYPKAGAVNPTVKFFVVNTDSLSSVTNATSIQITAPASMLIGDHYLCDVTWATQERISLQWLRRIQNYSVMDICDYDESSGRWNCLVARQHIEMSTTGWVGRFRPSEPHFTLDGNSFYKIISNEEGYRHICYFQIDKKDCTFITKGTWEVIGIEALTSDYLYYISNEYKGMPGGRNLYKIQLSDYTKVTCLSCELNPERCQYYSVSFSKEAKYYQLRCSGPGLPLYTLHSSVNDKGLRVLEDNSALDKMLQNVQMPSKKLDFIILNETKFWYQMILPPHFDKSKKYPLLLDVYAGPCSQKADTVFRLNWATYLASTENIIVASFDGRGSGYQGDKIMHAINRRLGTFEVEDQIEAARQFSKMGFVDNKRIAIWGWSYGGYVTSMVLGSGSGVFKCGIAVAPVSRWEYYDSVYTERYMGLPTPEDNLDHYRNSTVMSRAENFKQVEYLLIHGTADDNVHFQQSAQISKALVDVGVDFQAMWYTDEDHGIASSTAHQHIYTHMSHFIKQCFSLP
Mode: inhibitor

`Cn1c(=O)c(=O)n(C)c2cc(S(=O)(=O)Nc3ccc(S(=O)(=O)Nc4ncccn4)cc3)ccc21` has an IC50 of 0.00048 µM (enzyme activity, fluorescence).
`NCC(=O)NCC(=O)N[C@@H](Cc1ccccc1)C(=O)O` has an IC50 of 570 µM (enzyme activity, absorbance).
The IC50 of `Cn1c(=O)c(=O)n(C)c2cc(S(=O)(=O)Nc3ccc(S(=O)(=O)Nc4nccs4)cc3)ccc21` is reported as 0.000955 µM (enzyme activity).
`N[C@@H](CC(=O)N/N=C/c1ccc(F)c(F)c1)Cc1cc(F)c(F)cc1F` gave an IC50 of 5.08 µM (enzyme activity).
For `CC(C)NC(=O)NNS(=O)(=O)c1ccc2c(c1)n(C)c(=O)c(=O)n2C`, the IC50 was 3.9e-05 µM (enzyme activity, fluorescence).
With `CCC1(CC)C(=O)N(c2cccc(CN3CCN(c4cc(C)nc5ccc(Br)cc45)CC3)c2)C1=O` the IC50 was 2.7 µM (cell-free assay).
`Cc1cc(O)c(C=O)c2c1C(=O)Oc1c(CO)c(O)c3c(c1O2)C(O)OC3=O` (stereo not drawn) has an IC50 of 0.161 µM (enzyme activity).
`CC(C)=CCN=C(N)NCCC[C@@H](NC(=O)CCCc1ccc(O)cc1)C(=O)N[C@@H](Cc1ccccc1)C(O)CC(=O)N[C@@H](Cc1ccc(O)cc1)C(=O)O` (stereo in doubt) has an IC50 of 26 µM (enzyme activity).
The IC50 of `O=c1c2c(O)cc(O)cc2oc2oc3cc(O)ccc3c12` is reported as 45.2 µM (enzyme activity).
`O=C(OC[C@@]1(O)C(=O)C=C[C@@H](OC(=O)c2ccccc2)[C@@H]1O)c1ccccc1` gave an IC50 of 15.7 µM (enzyme activity).
The IC50 of `COc1cc(/C=C/C(=O)OC[C@H]2O[C@H](O[C@]3(CO)O[C@H](CO)[C@@H](OC(C)=O)[C@@H]3OC(=O)/C=C/c3ccc(O)c(OC)c3)[C@H](O)[C@@H](O)[C@@H]2O)ccc1O` is reported as 63.3 µM (enzyme activity).
The IC50 of `NC(CC(=O)NN=Cc1ccc(Cl)c(Cl)c1)Cc1cc(F)c(F)cc1F` (stereo not drawn) is reported as 30.8 µM (enzyme activity).

Repeated from above:
With `CCC1(CC)C(=O)N(c2cccc(CN3CCN(c4cc(C)nc5ccc(Br)cc45)CC3)c2)C1=O` the IC50 was 2.7 µM (cell-free assay).
`Cc1cc(O)c(C=O)c2c1C(=O)Oc1c(CO)c(O)c3c(c1O2)C(O)OC3=O` (stereo not drawn) has an IC50 of 0.161 µM (enzyme activity).
